Experimental data gathered from unrelated publications.
Protocols differ between the studies behind these lines. Several values in a cell are separate wells, animals, samples, runs or records. ± marks the error that the study gave.

SMILES	tested on	assay	test system	setting	how to read	quantity	result
CC[n+]1cccc2cc(/C=N/NC(=O)c3ccc4ccc5ccc(C(=O)N/N=C/c6ccc7c(ccc[n+]7CC)c6)nc5c4n3)ccc21	MYC parallel G4 DNA	FRET melting	–	1 µM, DNA 0.2 µM	–	ΔTm	21 ± 0.2 °C
COc1nc(Nc2nc(O)c3ccccc3n2)nc2ccc(C)cc12	Mus musculus	gene silencing, high-content imaging	LDR reporter GFP cells	confirmation, mean of two runs	–	EC50	7.94 µM
C=CC(=O)N1[C@@H](c2ccc3c(c2)OCO3)c2[nH]c3ccccc3c2C[C@H]1C(=O)N1CCN(C)CC1	human cyclin E1 wild type-3xFLAG:CDK2	co-IP with TMT proteomics, measured: HNRNPA1	–	concentration not given, P09651	reference: wild type DMSO	relative co-enrichment	95%
Cc1ccc(C(C)C)c(OCc2ccc(C(=O)N/N=C/c3cccc(O)c3O)cc2)c1	Mus musculus	gene silencing, high-content imaging	LDR reporter GFP cells	30 h, confirmation, mean of two runs	–	Emax	23%
Nc1ncc(-c2cc(-c3cnn(CC(F)(F)F)c3)ncc2F)nc1C(=O)NC1CNCC(F)C1 (centres unmarked)	MARK2	KINOMEscan	–	1 µM	reference: DMSO control	remaining binding	97%
C[n+]1cccc2cc(/C=N/NC(=O)c3ccc4ccc(C(=O)N/N=C/c5ccc6c(ccc[n+]6C)c5)nc4n3)ccc21	MYC parallel G4 DNA	FRET melting	–	1 µM, DNA 0.2 µM	–	ΔTm	10.4 ± 0.1 °C
Cc1ccc(/C=N/N=C(\S)Nc2cccc(S(=O)(=O)N(C)C)c2)o1	Mus musculus	gene silencing, high-content imaging	LDR reporter GFP cells	retest run 2	–	AC50	12.6 µM
O=C(N/N=C/c1cc[n+](CC2CC2)c2ccccc12)c1cc(C(=O)N/N=C/c2cc[n+](CC3CC3)c3ccccc23)ncn1	MYC parallel G4 DNA	FRET melting	–	1 µM, DNA 0.2 µM	–	ΔTm	4.7 ± 0.8 °C
O=C(N/N=C/c1ccccn1)c1cc(-c2ccc(Cl)cc2)nc2ccccc12	Mus musculus	gene silencing, high-content imaging	LDR reporter GFP cells	retest run 1	–	AC50	10 µM
C[n+]1ccc(/C=N/NC(=O)C(=O)N/N=C/c2cc[n+](C)c3ccccc23)c2ccccc21	MYC parallel G4 DNA	FRET melting	–	1 µM, DNA 0.2 µM	–	ΔTm	3.4 ± 0.6 °C
C(=N\Nc1nc(-c2ccccn2)nc2ccccc12)/c1ccccc1	Mus musculus	gene silencing, high-content imaging	LDR reporter GFP cells	retest run 2	–	AC50	2.51 µM
Cc1ncsc1-c1ccc(C(C)NC(=O)C2CC(O)CN2C(=O)C(NC(=O)CCCCCCCCCCN2CCCC(Nc3ncc(Cl)c(Nc4ccccc4S(=O)(=O)C(C)C)n3)C2)C(C)(C)C)cc1 (centres unmarked)	22Rv1	RNA-seq, measured: PERCC1 mRNA	–	concentration not given	reference: DMSO	log2 fold change	-2.54
COC1OC(C)C(OC2OC(C)C(O)C(OC3OC(C)C(OC4OC(C)C(O)C(OC5OC(C)C(OC6OC(C)C(O)C(OC7OC(C)C(OC8OC(C)C(O)C(OC9OC(C)C(O)C(OS(=O)(=O)O)C9OS(=O)(=O)O)C8OS(=O)(=O)O)C(OS(=O)(=O)O)C7OS(=O)(=O)O)C6OS(=O)(=O)O)C(OS(=O)(=O)O)C5OS(=O)(=O)O)C4OS(=O)(=O)O)C(OS(=O)(=O)O)C3OS(=O)(=O)O)C2OS(=O)(=O)O)C(OS(=O)(=O)O)C1OS(=O)(=O)O (centres unmarked)	–	–	human plasma	128 µg/mL	–	prothrombin time	15.2 ± 0.3 s
CCN(CC)CC(=O)Nc1cccc(-n2cc(-c3ccc4ccc(-c5cn(-c6cccc(NC(=O)CN(CC)CC)c6)nn5)cc4c3)nn2)c1	RCC4	PCR angiogenesis array, measured: IL1B	–	5 x IC50, 2 h, normoxia	reference: untreated	fold regulation	-1.69
O=C(N/N=C/c1cc[n+](CC2CC2)c2ccccc12)C(=O)N/N=C/c1cc[n+](CC2CC2)c2ccccc12	hp2 hairpin duplex DNA	FRET melting	–	1 µM	–	ΔTm	0.8 ± 0.5 °C
CN1CCCNC(=O)c2cccc(c2)C(=O)NCCCN(C)CCCNc2cccc3c2C(=O)c2cccc(c2C3=O)NCCC1	SAS	RNA-seq, measured: C8orf37-AS1 mRNA	–	1 µM, 6 h	reference: untreated cells	log2 fold change	4.39
O=C(N/N=C/c1ccc2c(ccc[n+]2Cc2ccccc2)c1)c1cccc(C(=O)N/N=C/c2ccc3c(ccc[n+]3Cc3ccccc3)c2)n1	MYC parallel G4 DNA	FRET melting	–	1 µM, DNA 0.2 µM, added: duplex DNA competitor 10 µM	–	ΔTm	11.8 ± 0.1 °C
CC(C)C[C@H](NC(=O)[C@H](CC(=O)O)NC(=O)CNC(=O)[C@@H](N)CCCNC(=N)N)C(=O)N[C@@H](C)C(=O)N[C@H](C(=O)N[C@@H](CC(C)C)C(=O)N[C@@H](CCCNC(=N)N)C(=O)N[C@@H](CCC(N)=O)C(=O)N[C@@H](CC(C)C)C(=O)N[C@@H](C)C(=O)N[C@@H](CCC(N)=O)C(=O)N[C@@H](CCC(=O)O)C(=O)N[C@@H](CC(=O)O)C(=O)NCC(=O)N[C@H](C(=O)N[C@H](C(=O)NCC(=O)N[C@H](C(=O)N[C@@H](CCCNC(=N)N)C(=O)NCCOCCOCCOCCOCCOCCOCCOCCOCCOCCOCCOCCOCCC(=O)N[C@@H](CS)C(N)=O)C(C)C)C(C)C)C(C)C)[C@@H](C)O	–	ex vivo NIR imaging	NOD/SCID mice, xenograft, H2009 xenograft	intravenous, 30 µg, 24 h	reference: spleen	fluorescence signal ratio	3740 and 743 and 36.1
CC(C)(C)c1cc(-c2ccc3cccnc3n2)nc(-c2ccc3cccnc3n2)c1.COc1ccncc1.[Cl-].[Cl-].[Ru+2].c1ccc2cc3nc4c5cccnc5c5ncccc5c4nc3cc2c1	A-375	resazurin	–	added: light 633 nm, 20 mW, 100 J/cm2	–	EC50	1.59 µM
CC[n+]1cccc2cc(/C=N/NC(=O)c3cncc(C(=O)N/N=C/c4ccc5c(ccc[n+]5CC)c4)n3)ccc21	MYC parallel G4 DNA	FRET melting	–	1 µM, DNA 0.2 µM, added: duplex DNA competitor 10 µM	–	ΔTm	8.4 ± 0.4 °C
COC1CN([C@H]2CC[C@H]([C@@]3(C)Oc4c(Cl)cc(C(=O)NCc5c(SC)cc(C)[nH]c5=O)c(C)c4O3)CC2)C1	–	RNA-seq, measured: FAM110B	human, whole blood	dose not given, 24 h	reference: pretreatment baseline	log2 fold change	3.28
COC1OC(C)C(OS(=O)(=O)O)C(OC2OC(C)C(OS(=O)(=O)O)C(OC3OC(C)C(OS(=O)(=O)O)C(OC4OC(C)C(OS(=O)(=O)O)C(OC5OC(C)C(OS(=O)(=O)O)C(OC6OC(C)C(OS(=O)(=O)O)C(OC7OC(C)C(OS(=O)(=O)O)C(OC8OC(C)C(OS(=O)(=O)O)C(OC9OC(C)C(OS(=O)(=O)O)C(OC%10OC(C)C(OS(=O)(=O)O)C(OC%11OC(C)C(OS(=O)(=O)O)C(OC%12OC(C)C(OS(=O)(=O)O)C(OS(=O)(=O)O)C%12O)C%11O)C%10O)C9O)C8O)C7O)C6O)C5O)C4O)C3O)C2O)C1O (centres unmarked)	–	–	human plasma	128 µg/mL	reference: control	prothrombin time prolongation	0.97 fold
O=C(CSc1cccc[n+]1[O-])c1ccccc1Br	Mus musculus	gene silencing, high-content imaging	LDR reporter GFP cells	30 h, retest run 2	–	Emax	69%
C=CC(=O)Nc1cccc(Cn2ncc3cnc(Nc4cnn(CCOC)c4)nc32)c1	NIM1 human	binding, KINOMEscan	–	100 nM	lower = stronger binding	percent of control	98%
COCC/N=C(\S)N/N=C(\C)c1ccccc1O	Mus musculus	gene silencing, high-content imaging	LDR reporter GFP cells	confirmation, mean of two runs	–	EC50	7.08 µM
C[n+]1ccc(/C=N/NC(=O)c2ccc3ccc4ccc(C(=O)N/N=C/c5cc[n+](C)cc5)nc4c3n2)cc1	MYC parallel G4 DNA	FRET melting	–	1 µM, DNA 0.2 µM, added: duplex DNA competitor 10 µM	–	ΔTm	6.9 ± 0.3 °C
O=[N+]([O-])C(=C\Nc1ccccc1O)/C=N/c1ccccc1O	Mus musculus	gene silencing, high-content imaging	LDR reporter GFP cells	30 h, retest, mean of two runs	–	Emax	28%
COC1OC(C)C(OC2OC(C)C(OS(=O)(=O)O)C(OC3OC(C)C(OC4OC(C)C(OS(=O)(=O)O)C(OC5OC(C)C(OC6OC(C)C(OS(=O)(=O)O)C(OS(=O)(=O)O)C6O)C(OS(=O)(=O)O)C5O)C4O)C(OS(=O)(=O)O)C3O)C2O)C(OS(=O)(=O)O)C1O (centres unmarked)	–	–	human plasma	128 µg/mL	–	prothrombin time	15.7 ± 0.7 s
CNS(=O)(=O)Nc1nccc(Cc2c(C)c3ccc(Oc4ncccc4F)cc3oc2=O)c1F	JAR	cell viability	–	7 days	–	IC50	> 1 µM

Some of these lines once more:
SMILES	tested on	assay	test system	setting	how to read	quantity	result
CC(C)(C)c1cc(-c2ccc3cccnc3n2)nc(-c2ccc3cccnc3n2)c1.COc1ccncc1.[Cl-].[Cl-].[Ru+2].c1ccc2cc3nc4c5cccnc5c5ncccc5c4nc3cc2c1	A-375	resazurin	–	added: light 633 nm, 20 mW, 100 J/cm2	–	EC50	1.59 µM
C(=N\Nc1nc(-c2ccccn2)nc2ccccc12)/c1ccccc1	Mus musculus	gene silencing, high-content imaging	LDR reporter GFP cells	retest run 2	–	AC50	2.51 µM
COC1OC(C)C(OC2OC(C)C(O)C(OC3OC(C)C(OC4OC(C)C(O)C(OC5OC(C)C(OC6OC(C)C(O)C(OC7OC(C)C(OC8OC(C)C(O)C(OC9OC(C)C(O)C(OS(=O)(=O)O)C9OS(=O)(=O)O)C8OS(=O)(=O)O)C(OS(=O)(=O)O)C7OS(=O)(=O)O)C6OS(=O)(=O)O)C(OS(=O)(=O)O)C5OS(=O)(=O)O)C4OS(=O)(=O)O)C(OS(=O)(=O)O)C3OS(=O)(=O)O)C2OS(=O)(=O)O)C(OS(=O)(=O)O)C1OS(=O)(=O)O (centres unmarked)	–	–	human plasma	128 µg/mL	–	prothrombin time	15.2 ± 0.3 s
C[n+]1ccc(/C=N/NC(=O)c2ccc3ccc4ccc(C(=O)N/N=C/c5cc[n+](C)cc5)nc4c3n2)cc1	MYC parallel G4 DNA	FRET melting	–	1 µM, DNA 0.2 µM, added: duplex DNA competitor 10 µM	–	ΔTm	6.9 ± 0.3 °C
